Values quoted from earlier work that unrelated publications cite.
Compare with care: the assays were run in different laboratories. Numbers after ± are the reported error.
Sequence of UniProt Q16512 (whole entry, looked up): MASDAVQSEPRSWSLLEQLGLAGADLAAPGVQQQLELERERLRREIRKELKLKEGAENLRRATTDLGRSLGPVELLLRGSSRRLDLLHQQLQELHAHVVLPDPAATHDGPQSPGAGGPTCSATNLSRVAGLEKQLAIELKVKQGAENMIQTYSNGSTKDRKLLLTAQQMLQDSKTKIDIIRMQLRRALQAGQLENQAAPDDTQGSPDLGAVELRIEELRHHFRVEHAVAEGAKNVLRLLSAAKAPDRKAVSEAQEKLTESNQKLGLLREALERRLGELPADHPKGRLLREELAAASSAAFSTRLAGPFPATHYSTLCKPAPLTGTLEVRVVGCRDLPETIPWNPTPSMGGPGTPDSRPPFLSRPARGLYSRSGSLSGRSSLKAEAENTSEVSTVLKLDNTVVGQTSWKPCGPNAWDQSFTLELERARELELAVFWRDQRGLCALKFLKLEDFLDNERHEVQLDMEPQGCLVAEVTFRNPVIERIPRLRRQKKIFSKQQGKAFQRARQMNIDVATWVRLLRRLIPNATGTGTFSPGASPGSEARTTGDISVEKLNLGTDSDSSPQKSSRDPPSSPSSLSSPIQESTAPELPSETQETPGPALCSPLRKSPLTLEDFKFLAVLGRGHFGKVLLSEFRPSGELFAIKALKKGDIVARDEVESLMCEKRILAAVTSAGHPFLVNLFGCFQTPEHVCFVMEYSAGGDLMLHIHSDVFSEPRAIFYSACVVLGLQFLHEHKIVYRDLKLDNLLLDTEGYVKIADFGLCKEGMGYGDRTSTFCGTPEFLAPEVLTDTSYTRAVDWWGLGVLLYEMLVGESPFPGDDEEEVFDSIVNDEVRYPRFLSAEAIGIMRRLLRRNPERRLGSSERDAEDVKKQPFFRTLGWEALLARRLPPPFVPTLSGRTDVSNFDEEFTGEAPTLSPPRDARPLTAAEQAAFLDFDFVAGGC

Cn1c(Cn2ccc(C(F)(F)F)c(Oc3cc(Cl)cc(C#N)c3)c2=O)n[nH]c1=O  Cmax increase (human; dose not given, CYP3A4 inhibition, added: ritonavir or ketoconazole): 20 to 30%
Nc1cc(C(F)(F)F)c(-c2nc(N3CCOCC3)nc(N3CCOCC3)n2)cn1  remaining activity (PKN1 (Homo sapiens, UniProt Q16512); enzyme activity; 10 µM; reference: untreated): 73%
COCCc1ccc(OCC(O)CNC(C)C)cc1 (centres unmarked)  Cmax (human fasted; 50 mg multiple doses, day 5, mean): 19 ng/mL
CNCc1cc(-c2ccccc2F)n(S(=O)(=O)c2cccnc2)c1  Cmax (human; 20 mg, multiple dose): 24.2 ng/mL
Cc1nsc(-c2nnc3n2CCN(C(=O)c2ccc(F)cc2)[C@@H]3C)n1  Cmax (human; oral, 45 mg single dose, fasted): 453 ng/mL
O=C(O)C[C@H](O)C[C@H](O)/C=C/c1c(C2CC2)nc2ccccc2c1-c1ccc(F)cc1  Cmax increase (healthy human volunteers; dose not given, added: rifampicin; reference: without rifampicin): 4.36 fold
CC1(C)CCC(CN2CCN(c3ccc(C(=O)NS(=O)(=O)c4ccc(NCC5CCOCC5)c([N+](=O)[O-])c4)c(Oc4cnc5[nH]ccc5c4)c3)CC2)=C(c2ccc(Cl)cc2)C1  Cmax increase (human; dose not given, added: triazole antifungals (CYP3A inhibitors); reference: without triazole): 7.1 fold
C=CC(=O)N1CCC([C@@H]2CCNc3c(C(N)=O)c(-c4ccc(Oc5ccccc5)cc4)nn32)CC1  Cmax (human patients; oral, 160 mg once daily, day 8): 390 ± 231 ng/mL
CCN1CCN(Cc2ccc(Nc3ncc(F)c(-c4cc(F)c5nc(C)n(C(C)C)c5c4)n3)nc2)CC1  Cmax increase (healthy human; dose not given, 50% w/w capsule, added: high-fat meal): 24%
O=C(c1cc(Cc2n[nH]c(=O)c3ccccc23)ccc1F)N1CCN(C(=O)C2CC2)CC1  Cmax at steady state (human; oral, dose not given, tablet): 9200 ng/mL
COc1cc2nccc(Oc3ccc(NC(=O)C4(C(=O)Nc5ccc(F)cc5)CC4)cc3)c2cc1OC  Cmax increase (human; dose not given, high-fat breakfast; reference: fasted): 41%
COc1cc2c(Oc3ccc4[nH]c(C)cc4c3F)ccnc2cc1OCC1(N)CC1  Cmax (human; 12 mg/day, two cycles): 61.6 ± 16.3 ng/mL
C[C@@H](Oc1ccc(S(C)(=O)=O)cc1C(=O)N1C[C@@H]2C[C@]2(c2cc(C(F)(F)F)on2)C1)C(F)(F)F  Cmax ratio (human; 25 mg single dose, observed geometric mean, added: itraconazole; reference: with over without itraconazole): 1.16
O=C1[C@H](CC[C@H](O)c2ccc(F)cc2)[C@@H](c2ccc(O)cc2)N1c1ccc(F)cc1  Cmax increase (human, serum; dose not given, added: rifampin, 600 mg, single dose; reference: without rifampin): 2.85 fold

Repeated from above:
Cc1nsc(-c2nnc3n2CCN(C(=O)c2ccc(F)cc2)[C@@H]3C)n1  Cmax (human; oral, 45 mg single dose, fasted): 453 ng/mL
Nc1cc(C(F)(F)F)c(-c2nc(N3CCOCC3)nc(N3CCOCC3)n2)cn1  remaining activity (PKN1 (Homo sapiens, UniProt Q16512); enzyme activity; 10 µM; reference: untreated): 73%
